Assay results collected from several papers.
Compare with care: the assays were run in different laboratories. ± gives the spread as reported.
Cell line: HeLa

Under “minimal cytotoxic concentration”, `[Cl][Pt-]1([Cl])[S]C(Nc2ccccc2)=N[N+]1=Cc1ccc(-c2ccccc2)s1` is recorded as 100 µM (altered cell morphology, microscopy; confluent cultures).
`Cc1cccc(CNC(=O)Cc2ccc(-c3ccc(OCCN4CCOCC4)cc3)cn2)c1` gave an IC50 of 0.97 µM (cell growth or viability, CCK-8; 48 h).
`Cc1ccc2oc(=O)c(-c3nc4cnccc4[nH]3)cc2c1` — result for expression: “decreased” (RT-qPCR and immunoblot, refers to: c-Myc, N-Myc and CCND1; 1 µM).
`CNC(=O)c1c(C)oc2cc(Oc3ncnc4cc(OC)c(OCCCCCCC(=O)NO)cc34)ccc12` has an apoptotic cells of 24.5% (annexin V/7-AAD flow cytometry; 3 µM, 48 h).
For `CC(C)(C)c1cc2c(O)c(c1)Cc1cc(C(C)(C)C)cc(c1OCC(=O)Nc1cccc3ncccc13)Cc1cc(C(C)(C)C)cc(c1O)Cc1cc(C(C)(C)C)cc(c1OCC(=O)Nc1cccc3ncccc13)COC2`, the inhibition was 18% (cell growth or viability, MTT; 15 µM, 72 h).
`Cc1ccc2c(Cl)cc(Cl)c([O-])c2n1.Cc1ccc2c(Cl)cc(Cl)c([O-])c2n1.[Co+2].c1ccc(-c2ccccn2)nc1` — result for “intracellular Ca2+ level”: “increased” (4.53 µM, 24 h).
For `O=C(/C=C/c1ccccc1)Oc1ccc2c(c1)O/C(=C\C=C\c1ccccc1)C2=O`, p62 level read “increased” (Western blot; 0.3 to 10 µM, 24 h).
Under “late apoptotic cells increase”, `CCOc1cc(N2CCC(O)CC2)ccc1Nc1ncc2c(n1)N(C)c1ccccc1C(=O)N2C` is recorded as 4.6% (annexin V/PI flow cytometry; 5 µM, 24 h; baseline: DMSO).
With `Cc1cc(/C=C2\CN(C(C)C)C/C(=C\c3cc(C)c(O)c(C)c3)C2=O)cc(C)c1O` the apoptotic cells was 26 ± 2.69% (annexin V/PI flow cytometry; 10 µM, 24 h).
`O=S([O-])c1ccccc1N=Cc1ccccc1[O-].[Cu+2].c1c[nH]cn1`: “cleaved caspase-9 level” “increased” (protein expression, Western blot; 1, 2 and 3 µM, 24 h).
`COCCOCCOc1ccc([P+](Cc2ccc(C3=C4C(C)=CC(C)=[N+]4[B-](F)(F)n4c(C)cc(C)c43)cc2)(c2ccc(OCCOCCOC)cc2)c2ccc(OCCOCCOC)cc2)cc1` — result for “emission intensity decrease”: 36% (flow cytometry; concentration not given, 1 h, together with: CCCP 10 µM).
`O=[N+]([O-])c1ccc(C=[N+]2N=C(Nc3ccccc3)[S][Pd-]2([Cl])[Cl])s1`: “minimal cytotoxic concentration” 100 µM (altered cell morphology, microscopy; confluent cultures).
`O=c1c(/C=N/NC(=S)N/N=C/c2cc(Cl)ccc2O)coc2ccccc12` gave an apoptotic cells of 13.5% (annexin V-PI flow cytometry; 50 µM, 24 h).
`CC1=[N+]2N=C(c3ccccc3)[O][Pd-2]2([Cl])[O+]=C2Oc3ccccc3C=C21` (centres unmarked): “early apoptotic cells” 23 fold (annexin V/PI flow cytometry; IC50, 24 h; baseline: untreated).
`N=C(N)NCCC[C@@H]1NC(=O)[C@H](CCCCN)NC(=O)[C@@H](Cc2ccc(O)cc2)NC(=O)[C@H](CC(=O)O)NC(=O)CNC1=O` has a GI50 of 79 µM (cell growth or viability, MTT; 48 h).
`COc1cc([C@@H]2c3cc4c(cc3[C@@H](OCc3cc(-c5ccc(C)cc5)no3)[C@H]3COC(=O)C23)OCO4)cc(OC)c1OC` (some centres unmarked) gave a GI50 of 3.92 µM (cell growth or viability, SRB; 48 h).
`C=C1C(=O)OC2C=C(C)CCC=C(C(=O)OC(C)C(C)(O)C(=O)OC3C(OC(C)=O)C(C(=O)OC)=CCCC(C)=CC4OC(=O)C(=C)C43)CC(OC(=O)C(C)=CC)C12` (centres unmarked) gave a sub-G1 cells of 5.1% (PI staining flow cytometry; 3 µM, 24 h).

Repeated from above:
Under “minimal cytotoxic concentration”, `[Cl][Pt-]1([Cl])[S]C(Nc2ccccc2)=N[N+]1=Cc1ccc(-c2ccccc2)s1` is recorded as 100 µM (altered cell morphology, microscopy; confluent cultures).
`CC1=[N+]2N=C(c3ccccc3)[O][Pd-2]2([Cl])[O+]=C2Oc3ccccc3C=C21` (centres unmarked): “early apoptotic cells” 23 fold (annexin V/PI flow cytometry; IC50, 24 h; baseline: untreated).
`O=S([O-])c1ccccc1N=Cc1ccccc1[O-].[Cu+2].c1c[nH]cn1`: “cleaved caspase-9 level” “increased” (protein expression, Western blot; 1, 2 and 3 µM, 24 h).
